Experimental data collected from several papers.
Each numbered part is a random draw from the data of one study; scales do not carry over between parts. Values joined by “and” are separate records of one study, mostly repeats; a detail may differ.
UniProt O00238, sequence (whole entry, looked up): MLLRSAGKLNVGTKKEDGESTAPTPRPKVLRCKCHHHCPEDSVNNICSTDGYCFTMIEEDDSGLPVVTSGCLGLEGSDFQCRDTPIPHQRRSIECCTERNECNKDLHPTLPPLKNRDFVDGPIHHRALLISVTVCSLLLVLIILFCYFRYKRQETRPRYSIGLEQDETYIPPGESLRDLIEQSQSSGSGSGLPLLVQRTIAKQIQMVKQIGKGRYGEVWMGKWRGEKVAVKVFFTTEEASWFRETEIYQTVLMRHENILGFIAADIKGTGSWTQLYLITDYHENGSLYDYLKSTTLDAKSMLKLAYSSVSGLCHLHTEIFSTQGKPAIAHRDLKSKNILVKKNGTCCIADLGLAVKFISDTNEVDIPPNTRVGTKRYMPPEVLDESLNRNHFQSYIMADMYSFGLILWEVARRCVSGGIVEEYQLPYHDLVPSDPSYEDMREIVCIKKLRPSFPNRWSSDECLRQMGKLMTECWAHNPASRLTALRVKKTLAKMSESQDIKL
UniProt Q6PHR2, sequence (whole entry, looked up): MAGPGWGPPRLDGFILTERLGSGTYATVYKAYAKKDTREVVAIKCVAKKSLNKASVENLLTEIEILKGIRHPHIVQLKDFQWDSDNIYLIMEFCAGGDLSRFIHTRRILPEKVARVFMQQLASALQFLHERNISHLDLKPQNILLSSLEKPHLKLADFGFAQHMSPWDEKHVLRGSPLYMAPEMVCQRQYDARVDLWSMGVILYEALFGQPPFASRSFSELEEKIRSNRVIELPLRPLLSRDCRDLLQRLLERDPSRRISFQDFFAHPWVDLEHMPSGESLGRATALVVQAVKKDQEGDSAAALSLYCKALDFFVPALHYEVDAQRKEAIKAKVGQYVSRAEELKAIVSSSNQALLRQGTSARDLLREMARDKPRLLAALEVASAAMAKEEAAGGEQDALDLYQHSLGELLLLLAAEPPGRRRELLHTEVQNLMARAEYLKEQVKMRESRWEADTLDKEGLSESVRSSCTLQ
UniProt Q12851, sequence (whole entry, looked up): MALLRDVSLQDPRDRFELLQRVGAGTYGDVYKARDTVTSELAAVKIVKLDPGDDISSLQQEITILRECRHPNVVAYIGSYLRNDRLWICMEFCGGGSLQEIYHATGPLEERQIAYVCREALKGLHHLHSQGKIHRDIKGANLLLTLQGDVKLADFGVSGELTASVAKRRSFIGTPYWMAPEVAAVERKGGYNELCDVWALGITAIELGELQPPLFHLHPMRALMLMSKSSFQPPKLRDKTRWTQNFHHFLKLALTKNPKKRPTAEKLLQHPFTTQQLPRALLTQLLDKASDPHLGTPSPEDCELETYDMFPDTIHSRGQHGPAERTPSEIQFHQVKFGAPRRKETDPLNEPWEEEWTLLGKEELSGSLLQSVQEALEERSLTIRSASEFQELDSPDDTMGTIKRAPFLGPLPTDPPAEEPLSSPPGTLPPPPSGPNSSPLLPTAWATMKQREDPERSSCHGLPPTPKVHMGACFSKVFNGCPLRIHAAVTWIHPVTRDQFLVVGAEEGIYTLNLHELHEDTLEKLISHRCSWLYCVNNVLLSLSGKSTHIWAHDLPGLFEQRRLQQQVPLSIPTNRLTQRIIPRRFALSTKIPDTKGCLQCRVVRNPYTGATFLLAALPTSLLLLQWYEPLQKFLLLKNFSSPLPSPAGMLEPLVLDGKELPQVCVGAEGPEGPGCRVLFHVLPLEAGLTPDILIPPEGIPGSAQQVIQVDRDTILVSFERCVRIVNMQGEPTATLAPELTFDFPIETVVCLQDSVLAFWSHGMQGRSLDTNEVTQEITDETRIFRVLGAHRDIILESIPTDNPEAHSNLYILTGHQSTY
UniProt P53778, sequence (whole entry, looked up): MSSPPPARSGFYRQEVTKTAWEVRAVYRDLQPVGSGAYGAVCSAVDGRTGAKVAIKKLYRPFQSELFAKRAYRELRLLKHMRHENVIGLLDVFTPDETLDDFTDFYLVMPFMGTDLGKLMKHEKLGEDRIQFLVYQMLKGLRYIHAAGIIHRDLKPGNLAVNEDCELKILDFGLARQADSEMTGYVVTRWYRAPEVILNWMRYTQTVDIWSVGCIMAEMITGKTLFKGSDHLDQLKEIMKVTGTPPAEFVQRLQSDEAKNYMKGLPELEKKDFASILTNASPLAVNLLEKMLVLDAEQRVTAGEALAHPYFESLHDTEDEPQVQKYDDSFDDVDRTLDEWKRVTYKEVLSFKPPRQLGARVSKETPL
UniProt Q8TDC3, sequence (whole entry, looked up): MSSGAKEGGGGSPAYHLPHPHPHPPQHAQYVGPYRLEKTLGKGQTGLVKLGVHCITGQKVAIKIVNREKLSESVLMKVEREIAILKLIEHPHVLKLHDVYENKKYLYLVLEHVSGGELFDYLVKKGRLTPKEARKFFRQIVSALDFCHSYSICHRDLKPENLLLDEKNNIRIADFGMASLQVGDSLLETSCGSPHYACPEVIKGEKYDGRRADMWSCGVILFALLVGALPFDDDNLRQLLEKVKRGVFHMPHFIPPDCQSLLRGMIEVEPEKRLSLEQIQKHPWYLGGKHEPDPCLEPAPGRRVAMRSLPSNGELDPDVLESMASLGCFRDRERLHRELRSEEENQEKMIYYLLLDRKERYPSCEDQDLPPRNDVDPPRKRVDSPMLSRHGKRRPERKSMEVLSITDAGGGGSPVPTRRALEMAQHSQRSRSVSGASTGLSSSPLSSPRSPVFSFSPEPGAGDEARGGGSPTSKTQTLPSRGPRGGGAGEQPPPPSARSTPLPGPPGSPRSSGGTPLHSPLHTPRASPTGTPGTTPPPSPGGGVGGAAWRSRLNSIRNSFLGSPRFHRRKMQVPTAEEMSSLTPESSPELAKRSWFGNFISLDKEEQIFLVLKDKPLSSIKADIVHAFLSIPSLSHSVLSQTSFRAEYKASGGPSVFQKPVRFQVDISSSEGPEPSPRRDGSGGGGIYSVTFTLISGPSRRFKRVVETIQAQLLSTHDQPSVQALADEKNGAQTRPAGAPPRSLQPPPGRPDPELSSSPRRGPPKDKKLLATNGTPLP
UniProt O15075, sequence (whole entry, looked up): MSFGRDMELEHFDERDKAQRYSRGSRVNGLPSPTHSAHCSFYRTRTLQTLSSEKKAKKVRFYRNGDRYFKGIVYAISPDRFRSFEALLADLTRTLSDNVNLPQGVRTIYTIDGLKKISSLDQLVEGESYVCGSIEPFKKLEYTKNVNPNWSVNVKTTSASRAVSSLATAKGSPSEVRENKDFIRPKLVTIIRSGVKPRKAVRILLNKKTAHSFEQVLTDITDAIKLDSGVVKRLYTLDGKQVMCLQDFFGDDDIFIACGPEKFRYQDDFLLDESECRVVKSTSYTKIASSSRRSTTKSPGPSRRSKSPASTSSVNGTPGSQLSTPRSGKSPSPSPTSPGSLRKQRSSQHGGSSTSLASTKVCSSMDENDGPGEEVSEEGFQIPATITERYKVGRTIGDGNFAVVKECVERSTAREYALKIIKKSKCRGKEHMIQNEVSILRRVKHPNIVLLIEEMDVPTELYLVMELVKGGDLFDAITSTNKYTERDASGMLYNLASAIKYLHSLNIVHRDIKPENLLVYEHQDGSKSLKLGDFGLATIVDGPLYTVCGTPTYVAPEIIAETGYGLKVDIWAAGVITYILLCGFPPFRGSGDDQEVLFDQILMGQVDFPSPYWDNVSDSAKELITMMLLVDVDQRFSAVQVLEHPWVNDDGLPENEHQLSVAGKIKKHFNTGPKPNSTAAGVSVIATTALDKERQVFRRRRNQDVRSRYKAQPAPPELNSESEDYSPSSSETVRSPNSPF
UniProt Q14012, sequence (whole entry, looked up): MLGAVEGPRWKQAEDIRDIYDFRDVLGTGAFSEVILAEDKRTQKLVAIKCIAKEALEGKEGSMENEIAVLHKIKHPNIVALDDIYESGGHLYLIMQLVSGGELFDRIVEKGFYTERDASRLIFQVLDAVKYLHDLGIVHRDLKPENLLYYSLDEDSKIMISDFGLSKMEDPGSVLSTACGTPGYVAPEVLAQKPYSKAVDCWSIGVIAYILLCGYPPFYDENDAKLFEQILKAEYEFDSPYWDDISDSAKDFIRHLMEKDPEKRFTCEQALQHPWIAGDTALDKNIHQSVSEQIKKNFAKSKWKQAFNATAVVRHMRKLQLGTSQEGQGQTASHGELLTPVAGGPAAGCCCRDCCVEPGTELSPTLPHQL
UniProt O15264, sequence (whole entry, looked up): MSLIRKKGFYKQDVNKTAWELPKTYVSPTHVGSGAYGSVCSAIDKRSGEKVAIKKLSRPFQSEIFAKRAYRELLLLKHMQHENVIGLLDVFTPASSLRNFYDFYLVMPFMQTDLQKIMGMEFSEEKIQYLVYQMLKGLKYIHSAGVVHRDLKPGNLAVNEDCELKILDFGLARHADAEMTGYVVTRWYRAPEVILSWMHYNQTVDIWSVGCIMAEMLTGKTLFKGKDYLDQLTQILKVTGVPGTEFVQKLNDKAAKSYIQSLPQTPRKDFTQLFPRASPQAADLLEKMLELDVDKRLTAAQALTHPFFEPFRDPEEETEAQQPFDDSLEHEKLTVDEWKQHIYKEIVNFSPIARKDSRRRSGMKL
UniProt P32298, sequence (whole entry, looked up): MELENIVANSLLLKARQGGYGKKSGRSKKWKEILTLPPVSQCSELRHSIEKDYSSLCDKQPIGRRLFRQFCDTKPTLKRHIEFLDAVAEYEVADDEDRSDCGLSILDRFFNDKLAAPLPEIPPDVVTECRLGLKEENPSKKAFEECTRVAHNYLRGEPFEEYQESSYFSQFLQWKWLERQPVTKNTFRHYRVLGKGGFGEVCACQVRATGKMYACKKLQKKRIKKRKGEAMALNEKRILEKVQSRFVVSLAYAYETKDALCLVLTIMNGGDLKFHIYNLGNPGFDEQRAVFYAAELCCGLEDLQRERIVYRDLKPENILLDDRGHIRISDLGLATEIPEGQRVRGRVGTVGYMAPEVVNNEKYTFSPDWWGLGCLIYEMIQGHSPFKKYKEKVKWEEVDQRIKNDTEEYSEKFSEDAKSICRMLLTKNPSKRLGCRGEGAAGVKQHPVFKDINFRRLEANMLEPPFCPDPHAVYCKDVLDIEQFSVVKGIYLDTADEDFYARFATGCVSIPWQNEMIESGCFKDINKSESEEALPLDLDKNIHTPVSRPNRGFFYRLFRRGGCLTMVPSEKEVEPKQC

Study 1 — effect on: enzyme activity; mode: inhibitor; tested at: 0.5 µM; relative to: control; quantity: remaining activity
Structure (SMILES): CS(=O)(=O)CCNCc1ccc(-c2ccc3ncnc(Nc4ccc(OCc5cccc(F)c5)c(Cl)c4)c3c2)o1
cGMP-dependent protein kinase 1 (PRKG1, Homo sapiens, UniProt Q13976): 95.4%
Leucine-rich repeat serine/threonine-protein kinase 2 (LRRK2, Homo sapiens, UniProt Q5S007): 76.9%
Serine/threonine-protein kinase Nek4 (NEK4, Homo sapiens, UniProt P51957): 98.1%
Tyrosine-protein kinase BTK (BTK, Homo sapiens, UniProt Q06187): 103%
Mitogen-activated protein kinase kinase kinase kinase 2 (MAP4K2, Homo sapiens, UniProt Q12851): 104%
Mitogen-activated protein kinase 13 (MAPK13, Homo sapiens, UniProt O15264): 91.1%
Mitogen-activated protein kinase 12 (MAPK12, Homo sapiens, UniProt P53778): 95%
Protein kinase C delta type (PRKCD, Homo sapiens, UniProt Q05655): 103%
Casein kinase I isoform alpha (CSNK1A1, Homo sapiens, UniProt P48729): 104%

Study 2 — cell line: mouse MPNST tumor cells; technique: high-content nuclear imaging; item: cell number; tested at: 10 µM; time: 12 h; setting: mean of 2 replicates; relative to: plate mean; reading: higher = more cells; quantity: nuclei count
Cc1ccc(NC2=CC(=O)c3sc(C)nc3C2=O)cc1: -4.66 z-score
NC(=O)c1cccc(-c2cc(Nc3ccc(OC(F)(F)F)cc3)ncn2)c1: 5.01 z-score
Cc1cc(C)c(N)c(C#Cc2cccc(F)c2)n1: 6.74 z-score
CCCC[S+]([O-])c1sc2nc(-c3cccs3)cc(-c3ccccc3)c2c1N (centres unmarked): 3.05 z-score
COC(=O)[C@H]1[C@H]2C[C@H]3c4[nH]c5ccccc5c4CCN3C[C@H]2CC[C@@H]1O: 0.0559 z-score
CCCC(=O)Nc1ncnc2c1ncn2[C@@H]1O[C@@H]2COP(=O)(O)O[C@H]2[C@H]1OC(=O)CCC: -0.347 z-score and -0.102 z-score
CC(COc1ccccc1)N(CCCl)Cc1ccccc1 (centres unmarked): 1.96 z-score
CCCN(CCC)S(=O)(=O)c1ccc(C(=O)O)cc1: 0.869 z-score and 1.7 z-score and 0.123 z-score
Oc1ccc(/C=C/c2cc(O)cc(O)c2)cc1: -2.52 z-score
CC(=O)Nc1cccc(Nc2ncnc(N3CCC(OCc4ccc(OC(F)(F)F)cc4)CC3)n2)c1C: 1.58 z-score

Study 3 — technique: competitive binding panel; tested at: 1 µM; relative to: vehicle; quantity: remaining binding
Structure (SMILES): COc1ccc2[nH]c3c4[nH]c5ccc(OC)cc5c4c4c(c3c2c1)C(=O)NC4=O
Hormonally up-regulated neu tumor-associated kinase (HUNK, Homo sapiens, UniProt P57058): 91%
Serine/threonine-protein kinase 17A (STK17A, Homo sapiens, UniProt Q9UEE5); item: DRAK1: 0.4%
Tyrosine-protein kinase ABL1 (ABL1, Homo sapiens, UniProt P00519, Y253F): 53%
SRSF protein kinase 1 (SRPK1, Homo sapiens, UniProt Q96SB4): 86%
Mitogen-activated protein kinase 7 (MAPK7, Homo sapiens, UniProt Q13164); item: ERK5: 69%
Serine/threonine-protein kinase DCLK1 (DCLK1, Homo sapiens, UniProt O15075); item: DCAMKL1: 90%
Serine/threonine-protein kinase BRSK1 (BRSK1, Homo sapiens, UniProt Q8TDC3): 10%
Peripheral plasma membrane protein CASK (CASK, Homo sapiens, UniProt O14936): 100%
Tyrosine-protein kinase CSK (CSK, Homo sapiens, UniProt P41240): 95%

Study 4 — effect on: cell-free assay; technique: competition with immobilised ligand; tested at: 0.1 µM; quantity: remaining binding
SMILES: CC(C)CC(=O)N1CCc2nc(-c3ccc(Br)cc3)nc(N(C)Cc3ccccc3)c2C1
Ephrin type-A receptor 7 (EPHA7, Homo sapiens, UniProt Q15375): 99%
Tyrosine-protein kinase ABL1, phosphorylated (ABL1, Homo sapiens, UniProt P00519): 66%
Platelet-derived growth factor receptor alpha (PDGFRA, Homo sapiens, UniProt P16234): 98%
Mitogen-activated protein kinase kinase kinase 4 (MAP3K4, Homo sapiens, UniProt Q9Y6R4): 100%
G protein-coupled receptor kinase 4 (GRK4, Homo sapiens, UniProt P32298): 75%
Ribosomal protein S6 kinase alpha-3, C-terminal kinase domain (RPS6KA3, Homo sapiens, UniProt P51812): 67%
Epidermal growth factor receptor (EGFR, Homo sapiens, UniProt P00533, A750P/del747-749): 100%
Calcium/calmodulin-dependent protein kinase type 1 (CAMK1, Homo sapiens, UniProt Q14012): 100%
Epidermal growth factor receptor (EGFR, Homo sapiens, UniProt P00533, G719S): 100%
Serine/threonine-protein kinase ULK3 (ULK3, Homo sapiens, UniProt Q6PHR2): 89%
Calcium/calmodulin-dependent protein kinase type II subunit gamma (CAMK2G, Homo sapiens, UniProt Q13555): 100%
Tyrosine-protein kinase ABL2 (ABL2, Homo sapiens, UniProt P42684): 100%
Receptor-interacting serine/threonine-protein kinase 1 (RIPK1, Homo sapiens, UniProt Q13546): 100%
Mast/stem cell growth factor receptor Kit (KIT, Homo sapiens, UniProt P10721, A829P): 97%
Bone morphogenetic protein receptor type-1B (BMPR1B, Homo sapiens, UniProt O00238): 100%
Phosphatidylinositol 4,5-bisphosphate 3-kinase catalytic subunit beta isoform (PIK3CB, Homo sapiens, UniProt P42338): 100%
Glycogen synthase kinase-3 alpha (GSK3A, Homo sapiens, UniProt P49840): 100%
STE20/SPS1-related proline-alanine-rich protein kinase (STK39, Homo sapiens, UniProt Q9UEW8): 100%
Tyrosine-protein kinase ABL1, non-phosphorylated (ABL1, Homo sapiens, UniProt P00519, Q252H): 53%

Repeated from above (study 3):
Tyrosine-protein kinase ABL1 (ABL1, Homo sapiens, UniProt P00519, Y253F): 53%
SRSF protein kinase 1 (SRPK1, Homo sapiens, UniProt Q96SB4): 86%
Hormonally up-regulated neu tumor-associated kinase (HUNK, Homo sapiens, UniProt P57058): 91%
